Published values pooled from the literature.
Every numbered part comes from another study and shows a few of its results, in no order.
Sequence of UniProt Q14680 (whole entry, looked up): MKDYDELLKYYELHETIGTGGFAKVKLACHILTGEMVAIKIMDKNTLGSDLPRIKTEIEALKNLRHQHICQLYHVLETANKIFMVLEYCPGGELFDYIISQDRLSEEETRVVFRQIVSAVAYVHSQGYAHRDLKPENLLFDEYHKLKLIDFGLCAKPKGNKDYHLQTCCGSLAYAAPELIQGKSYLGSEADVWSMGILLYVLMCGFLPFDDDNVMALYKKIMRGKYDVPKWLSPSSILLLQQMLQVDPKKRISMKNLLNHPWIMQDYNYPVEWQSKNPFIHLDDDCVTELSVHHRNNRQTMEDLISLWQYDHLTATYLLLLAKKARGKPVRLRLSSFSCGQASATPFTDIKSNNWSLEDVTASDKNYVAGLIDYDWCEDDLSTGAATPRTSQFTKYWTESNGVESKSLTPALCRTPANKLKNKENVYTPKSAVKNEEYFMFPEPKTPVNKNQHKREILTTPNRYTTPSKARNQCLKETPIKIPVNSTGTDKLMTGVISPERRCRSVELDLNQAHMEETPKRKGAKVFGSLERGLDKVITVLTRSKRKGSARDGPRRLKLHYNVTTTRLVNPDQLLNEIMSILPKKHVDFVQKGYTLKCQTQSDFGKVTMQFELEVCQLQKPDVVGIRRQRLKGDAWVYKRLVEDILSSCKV
Sequence of UniProt O75716 (whole entry, looked up): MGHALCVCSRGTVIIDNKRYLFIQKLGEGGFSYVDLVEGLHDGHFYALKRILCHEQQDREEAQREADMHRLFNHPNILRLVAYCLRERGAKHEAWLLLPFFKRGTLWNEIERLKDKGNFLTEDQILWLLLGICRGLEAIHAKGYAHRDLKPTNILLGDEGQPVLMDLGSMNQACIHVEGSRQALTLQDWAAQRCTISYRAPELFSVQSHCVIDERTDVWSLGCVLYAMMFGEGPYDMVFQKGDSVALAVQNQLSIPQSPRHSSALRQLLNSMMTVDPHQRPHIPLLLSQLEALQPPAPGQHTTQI
Sequence of UniProt O14757 (whole entry, looked up): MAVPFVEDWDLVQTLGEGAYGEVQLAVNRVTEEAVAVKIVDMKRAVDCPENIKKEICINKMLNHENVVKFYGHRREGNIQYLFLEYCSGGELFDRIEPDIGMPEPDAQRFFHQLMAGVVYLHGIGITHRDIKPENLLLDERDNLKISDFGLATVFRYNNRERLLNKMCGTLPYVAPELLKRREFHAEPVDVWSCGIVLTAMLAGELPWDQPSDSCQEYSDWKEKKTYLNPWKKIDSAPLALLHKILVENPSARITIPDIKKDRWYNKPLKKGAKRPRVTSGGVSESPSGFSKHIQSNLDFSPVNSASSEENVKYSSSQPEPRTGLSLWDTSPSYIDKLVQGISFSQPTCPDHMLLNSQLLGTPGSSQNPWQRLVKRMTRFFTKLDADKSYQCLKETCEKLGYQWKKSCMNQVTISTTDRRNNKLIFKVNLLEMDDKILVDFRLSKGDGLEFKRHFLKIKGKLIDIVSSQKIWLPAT
Sequence of UniProt Q9Y6R4 (whole entry, looked up): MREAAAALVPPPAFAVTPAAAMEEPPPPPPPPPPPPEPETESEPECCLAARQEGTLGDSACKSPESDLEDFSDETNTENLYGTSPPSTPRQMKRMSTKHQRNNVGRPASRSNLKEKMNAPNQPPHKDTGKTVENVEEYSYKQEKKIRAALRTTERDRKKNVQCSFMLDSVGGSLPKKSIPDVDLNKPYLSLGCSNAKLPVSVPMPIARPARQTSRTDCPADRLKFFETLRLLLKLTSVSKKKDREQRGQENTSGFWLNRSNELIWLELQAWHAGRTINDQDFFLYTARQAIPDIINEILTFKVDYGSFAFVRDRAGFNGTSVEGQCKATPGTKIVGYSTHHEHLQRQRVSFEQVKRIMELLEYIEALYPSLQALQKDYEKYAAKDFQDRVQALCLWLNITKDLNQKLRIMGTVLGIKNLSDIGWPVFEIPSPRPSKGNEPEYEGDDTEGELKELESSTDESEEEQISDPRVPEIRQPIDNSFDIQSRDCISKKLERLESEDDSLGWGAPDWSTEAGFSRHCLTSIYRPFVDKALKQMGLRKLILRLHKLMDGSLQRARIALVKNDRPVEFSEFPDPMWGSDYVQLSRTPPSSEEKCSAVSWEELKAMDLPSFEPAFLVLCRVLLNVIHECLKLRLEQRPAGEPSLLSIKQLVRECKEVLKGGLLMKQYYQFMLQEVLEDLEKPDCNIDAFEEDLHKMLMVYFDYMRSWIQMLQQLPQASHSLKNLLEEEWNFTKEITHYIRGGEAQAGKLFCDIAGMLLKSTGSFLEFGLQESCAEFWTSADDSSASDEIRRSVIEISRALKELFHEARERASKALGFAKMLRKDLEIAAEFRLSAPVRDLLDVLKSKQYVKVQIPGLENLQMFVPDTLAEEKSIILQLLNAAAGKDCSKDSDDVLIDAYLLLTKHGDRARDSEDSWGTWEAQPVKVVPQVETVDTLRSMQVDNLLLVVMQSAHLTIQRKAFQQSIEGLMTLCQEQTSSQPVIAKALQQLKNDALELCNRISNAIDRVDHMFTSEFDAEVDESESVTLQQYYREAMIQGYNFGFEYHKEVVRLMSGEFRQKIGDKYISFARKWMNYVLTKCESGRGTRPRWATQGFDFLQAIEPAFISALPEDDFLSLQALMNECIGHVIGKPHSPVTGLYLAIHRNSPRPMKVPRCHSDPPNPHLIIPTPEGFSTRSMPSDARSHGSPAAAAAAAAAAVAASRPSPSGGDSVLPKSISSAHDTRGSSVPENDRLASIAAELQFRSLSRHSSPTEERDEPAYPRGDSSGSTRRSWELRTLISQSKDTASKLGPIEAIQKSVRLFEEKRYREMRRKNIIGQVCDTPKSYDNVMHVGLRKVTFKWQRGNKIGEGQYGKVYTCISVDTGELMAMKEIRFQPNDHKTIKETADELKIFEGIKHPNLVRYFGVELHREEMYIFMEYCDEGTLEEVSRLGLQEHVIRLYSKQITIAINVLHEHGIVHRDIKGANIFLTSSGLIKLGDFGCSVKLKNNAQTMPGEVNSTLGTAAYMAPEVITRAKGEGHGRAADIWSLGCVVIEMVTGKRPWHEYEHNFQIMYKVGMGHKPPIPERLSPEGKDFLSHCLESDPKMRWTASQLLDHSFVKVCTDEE
Sequence of UniProt Q9NSY1 (whole entry, looked up): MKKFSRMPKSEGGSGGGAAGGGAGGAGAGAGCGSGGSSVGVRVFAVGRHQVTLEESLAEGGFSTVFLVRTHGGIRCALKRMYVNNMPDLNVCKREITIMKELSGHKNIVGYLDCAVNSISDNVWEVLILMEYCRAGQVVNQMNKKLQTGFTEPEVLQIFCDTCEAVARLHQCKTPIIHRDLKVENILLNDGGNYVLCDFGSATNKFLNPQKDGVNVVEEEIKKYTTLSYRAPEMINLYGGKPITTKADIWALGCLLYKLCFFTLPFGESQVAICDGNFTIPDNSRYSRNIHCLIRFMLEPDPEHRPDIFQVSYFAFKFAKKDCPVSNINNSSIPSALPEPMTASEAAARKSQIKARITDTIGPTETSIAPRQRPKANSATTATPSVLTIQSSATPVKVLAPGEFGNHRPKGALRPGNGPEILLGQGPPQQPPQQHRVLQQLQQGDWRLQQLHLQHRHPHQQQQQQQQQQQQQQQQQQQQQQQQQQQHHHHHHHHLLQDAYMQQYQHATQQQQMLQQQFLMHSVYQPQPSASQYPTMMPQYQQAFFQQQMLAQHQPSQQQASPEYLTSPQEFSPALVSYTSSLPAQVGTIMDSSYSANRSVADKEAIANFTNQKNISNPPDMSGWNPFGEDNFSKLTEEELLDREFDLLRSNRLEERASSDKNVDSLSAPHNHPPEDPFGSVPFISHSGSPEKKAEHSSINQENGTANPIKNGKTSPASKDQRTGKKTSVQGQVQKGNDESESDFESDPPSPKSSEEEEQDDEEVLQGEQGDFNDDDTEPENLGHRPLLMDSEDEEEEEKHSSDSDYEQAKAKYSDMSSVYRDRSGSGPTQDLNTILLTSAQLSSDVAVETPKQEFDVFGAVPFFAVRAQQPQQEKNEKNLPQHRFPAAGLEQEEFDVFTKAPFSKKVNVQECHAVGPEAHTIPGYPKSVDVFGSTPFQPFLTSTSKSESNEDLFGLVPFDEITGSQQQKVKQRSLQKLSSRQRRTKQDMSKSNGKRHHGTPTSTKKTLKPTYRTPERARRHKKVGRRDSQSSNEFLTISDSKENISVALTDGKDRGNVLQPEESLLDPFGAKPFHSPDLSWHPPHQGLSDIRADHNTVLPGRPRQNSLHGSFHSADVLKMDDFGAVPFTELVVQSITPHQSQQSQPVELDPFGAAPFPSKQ
Sequence of UniProt P68400 (whole entry, looked up): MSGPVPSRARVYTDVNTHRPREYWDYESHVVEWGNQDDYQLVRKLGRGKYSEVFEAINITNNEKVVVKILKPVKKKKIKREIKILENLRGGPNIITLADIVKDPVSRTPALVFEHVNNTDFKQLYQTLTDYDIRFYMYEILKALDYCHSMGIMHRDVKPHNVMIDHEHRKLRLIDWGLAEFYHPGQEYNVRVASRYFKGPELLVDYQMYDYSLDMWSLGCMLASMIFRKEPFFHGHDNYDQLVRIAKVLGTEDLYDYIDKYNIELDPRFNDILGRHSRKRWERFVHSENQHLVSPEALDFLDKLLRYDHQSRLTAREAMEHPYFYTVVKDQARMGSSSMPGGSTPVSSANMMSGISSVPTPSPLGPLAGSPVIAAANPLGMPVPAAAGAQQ

Set 1 — species: idiopathic pulmonary fibrosis patients; quantity: adverse event incidence
Structure (SMILES): CC(C)n1cnc(-c2ccc(F)cc2)c1-c1ncc(C(=O)Nc2ccc(N3CCN(C)CC3)cc2)[nH]1
phase 2a trial, refers to: infection; dose not given, grade 5, all arms pooled: 0%
phase 2a trial, refers to: ECG ST segment abnormal; 60 mg once daily, grade 4: 0%
phase 2a trial, refers to: appendicitis; 30 mg once daily, grade 1: 0%
phase 2a trial, refers to: appendicitis; dose not given, grade 1, all arms pooled: 0%
phase 2a trial, refers to: chronic gastritis; dose not given, grade 2, all arms pooled: 0%
30 mg twice daily, any adverse event, added: standard of care: 75%
phase 2a trial, refers to: gingivitis; dose not given, grade 3, all arms pooled: 0%
phase 2a trial, refers to: ECG ST segment abnormal; 30 mg once daily, grade 2: 0%
phase 2a trial, refers to: allergic conjunctivitis; 30 mg once daily, grade 1: 0%
phase 2a trial, refers to: appendicitis; 30 mg once daily, grade 4: 0%
phase 2a trial, refers to: liver injury; 30 mg once daily, grade 4: 0%

Set 2 — concentration: 1 µM; quantity: remaining binding
SMILES: Cc1nc(C2CCN(C(=O)c3ccc(OC(F)(F)F)cc3N)CC2)c2ncc(N3CCN(C)CC3)cc2n1
AKT2 (Homo sapiens, UniProt P31751); cell-free assay, competition with immobilised ligand: 100%
MELK (Homo sapiens, UniProt Q14680); cell-free assay, competition with immobilised ligand: 93%
CDK17 (Homo sapiens, UniProt Q00537); cell-free assay, competition with immobilised ligand: 88%
STK36 (Homo sapiens, UniProt Q9NRP7); cell-free assay, competition with immobilised ligand: 100%
AAK1 (Homo sapiens, UniProt Q2M2I8); binding: 100%
STK16 (Homo sapiens, UniProt O75716); cell-free assay, competition with immobilised ligand: 100%
PIK3CA (Homo sapiens, UniProt P42336, E542K); cell-free assay, competition with immobilised ligand: 92%
EGFR (Homo sapiens, UniProt P00533, T790M); cell-free assay, competition with immobilised ligand: 100%
MAP3K4 (Homo sapiens, UniProt Q9Y6R4); cell-free assay, competition with immobilised ligand: 100%
DYRK1B (Homo sapiens, UniProt Q9Y463); cell-free assay, competition with immobilised ligand: 61%
LIM domain kinase 2 (LIMK2, Homo sapiens, UniProt P53671); cell-free assay, competition with immobilised ligand: 95%
CSNK1D (Homo sapiens, UniProt P48730); cell-free assay, competition with immobilised ligand: 83%
MAP3K1 (Homo sapiens, UniProt Q13233); cell-free assay, competition with immobilised ligand: 82%
BMP2K (Homo sapiens, UniProt Q9NSY1); cell-free assay, competition with immobilised ligand: 100%
EPHA7 (Homo sapiens, UniProt Q15375); cell-free assay, competition with immobilised ligand: 92%
MET (Homo sapiens, UniProt P08581, Y1235D); cell-free assay, competition with immobilised ligand: 98%
SRPK1 (Homo sapiens, UniProt Q96SB4); cell-free assay, competition with immobilised ligand: 79%
CHUK (Homo sapiens, UniProt O15111); cell-free assay, competition with immobilised ligand: 84%

Set 3 — effect on: enzyme activity; mode: inhibitor; concentration: 0.5 µM; baseline: control; quantity: remaining activity
Compound: COc1cc2ncnc(N3CCN(C(=O)Nc4ccc(Oc5ccccc5)cc4)CC3)c2cc1OC
CHEK1 (Homo sapiens, UniProt O14757): 99.4%
NEK4 (Homo sapiens, UniProt P51957): 94.4%
CSNK2A1 (Homo sapiens, UniProt P68400): 96.2%
MAPK12 (Homo sapiens, UniProt P53778): 94.7%
EPHA5 (Homo sapiens, UniProt P54756): 98.3%
PRKG1 (Homo sapiens, UniProt Q13976): 85.6%
CSNK1A1 (Homo sapiens, UniProt P48729): 108%
IRAK4 (Homo sapiens, UniProt Q9NWZ3): 83.5%
AKT3 (Homo sapiens, UniProt Q9Y243): 97.5%
WNK2 (Homo sapiens, UniProt Q9Y3S1): 102%
MAPK13 (Homo sapiens, UniProt O15264): 104%

Set 4 — effect on: enzyme activity; mode: inhibitor; concentration: 10 µM; quantity: inhibition
Target: Calcium/calmodulin-dependent protein kinase type II subunit alpha (CAMK2A, Homo sapiens, UniProt Q9UQM7)
Sequence of UniProt Q9UQM7 (whole entry, looked up): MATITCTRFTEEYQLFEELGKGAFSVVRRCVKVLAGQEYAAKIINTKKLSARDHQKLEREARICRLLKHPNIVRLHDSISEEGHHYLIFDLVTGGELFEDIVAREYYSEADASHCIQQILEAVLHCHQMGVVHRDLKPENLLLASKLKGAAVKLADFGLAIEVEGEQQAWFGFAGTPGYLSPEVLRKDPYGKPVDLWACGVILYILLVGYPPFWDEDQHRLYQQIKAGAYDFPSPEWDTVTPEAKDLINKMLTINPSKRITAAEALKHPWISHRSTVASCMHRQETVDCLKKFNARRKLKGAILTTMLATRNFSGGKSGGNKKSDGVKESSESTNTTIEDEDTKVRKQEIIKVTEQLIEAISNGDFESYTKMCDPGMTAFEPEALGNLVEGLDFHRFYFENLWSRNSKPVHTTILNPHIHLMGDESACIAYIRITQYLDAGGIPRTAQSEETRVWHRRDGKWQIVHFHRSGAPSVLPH
CC(=O)OCC1=C[C@@H]2OC(=O)C3=CO[C@@H](O[C@@H]4O[C@H](CO)[C@@H](O)[C@H](O)[C@H]4O)[C@H]1[C@@H]32: -20%
CCOC(=O)[C@H](CCc1ccccc1)N[C@@H](C)C(=O)N1[C@H](C(=O)O)C[C@@H]2CCC[C@@H]21: 2%
CC(=O)C(=O)O: -26%
NCCCCC(N)C(=O)O (racemic): 24%
CCC(C)C(=O)C(=O)O (stereo not shown): 3%
O=C(NC(Cc1cc(=O)[nH]c2ccccc12)C(=O)O)c1ccc(Cl)cc1 (stereo not shown): -8%
CC(C)(CO)C(O)C(=O)NCCCO (racemic): -4%
NCCC(=O)N[C@@H](Cc1cnc[nH]1)C(=O)O: 27%
CC(C)=CCC[C@](C)(O)[C@@H]1CC=C(C)CC1: 11%
